Published values collected from several papers.
Parts stem from different laboratories: compare values within a part only.
UniProt Q9Y2K2, sequence (whole entry, looked up): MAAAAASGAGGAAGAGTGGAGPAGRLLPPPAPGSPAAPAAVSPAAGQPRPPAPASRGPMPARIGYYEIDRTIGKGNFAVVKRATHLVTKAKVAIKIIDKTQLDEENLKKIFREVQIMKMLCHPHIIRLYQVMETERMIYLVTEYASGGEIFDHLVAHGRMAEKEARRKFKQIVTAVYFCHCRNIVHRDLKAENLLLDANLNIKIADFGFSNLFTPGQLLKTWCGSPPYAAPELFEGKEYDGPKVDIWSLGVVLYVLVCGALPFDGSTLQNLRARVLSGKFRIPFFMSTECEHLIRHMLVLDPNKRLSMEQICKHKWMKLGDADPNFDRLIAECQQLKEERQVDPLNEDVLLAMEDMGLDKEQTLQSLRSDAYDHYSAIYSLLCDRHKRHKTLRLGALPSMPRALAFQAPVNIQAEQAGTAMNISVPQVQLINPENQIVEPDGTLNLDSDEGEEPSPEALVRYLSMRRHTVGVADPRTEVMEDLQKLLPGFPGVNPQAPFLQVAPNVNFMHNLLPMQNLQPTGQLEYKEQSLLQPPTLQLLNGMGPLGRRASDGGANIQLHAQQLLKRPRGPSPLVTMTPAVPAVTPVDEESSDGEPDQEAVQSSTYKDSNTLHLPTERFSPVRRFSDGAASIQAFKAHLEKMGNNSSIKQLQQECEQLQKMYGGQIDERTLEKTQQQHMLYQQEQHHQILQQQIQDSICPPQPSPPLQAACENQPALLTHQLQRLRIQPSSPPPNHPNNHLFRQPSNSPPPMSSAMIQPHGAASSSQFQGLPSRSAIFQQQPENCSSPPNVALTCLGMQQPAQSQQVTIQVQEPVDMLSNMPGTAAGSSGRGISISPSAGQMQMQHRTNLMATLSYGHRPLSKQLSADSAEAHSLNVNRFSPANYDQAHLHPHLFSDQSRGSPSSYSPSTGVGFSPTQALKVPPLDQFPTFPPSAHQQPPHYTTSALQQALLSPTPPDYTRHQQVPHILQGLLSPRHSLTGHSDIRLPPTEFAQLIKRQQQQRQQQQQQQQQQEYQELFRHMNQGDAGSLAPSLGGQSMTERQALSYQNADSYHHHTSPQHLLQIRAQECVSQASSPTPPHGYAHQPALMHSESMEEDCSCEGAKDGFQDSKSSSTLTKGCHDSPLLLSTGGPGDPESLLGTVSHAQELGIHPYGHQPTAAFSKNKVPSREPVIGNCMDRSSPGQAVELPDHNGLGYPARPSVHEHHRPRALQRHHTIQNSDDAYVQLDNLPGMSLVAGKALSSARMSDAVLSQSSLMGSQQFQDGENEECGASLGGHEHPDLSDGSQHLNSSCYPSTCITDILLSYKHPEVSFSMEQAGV
UniProt P51451, sequence (whole entry, looked up): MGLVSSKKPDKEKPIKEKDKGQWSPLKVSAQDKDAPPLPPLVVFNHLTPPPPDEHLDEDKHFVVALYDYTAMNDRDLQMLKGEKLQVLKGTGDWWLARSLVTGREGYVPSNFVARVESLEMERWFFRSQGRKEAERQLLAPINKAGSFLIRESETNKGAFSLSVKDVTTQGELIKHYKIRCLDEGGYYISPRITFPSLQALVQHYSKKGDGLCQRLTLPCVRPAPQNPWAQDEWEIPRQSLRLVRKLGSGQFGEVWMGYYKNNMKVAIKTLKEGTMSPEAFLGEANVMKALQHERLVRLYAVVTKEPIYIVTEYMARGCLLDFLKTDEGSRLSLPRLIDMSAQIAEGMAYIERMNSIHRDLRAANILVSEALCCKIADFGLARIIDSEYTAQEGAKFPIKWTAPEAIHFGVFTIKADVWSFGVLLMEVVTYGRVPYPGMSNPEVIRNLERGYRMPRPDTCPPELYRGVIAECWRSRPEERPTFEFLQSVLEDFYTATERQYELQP

Series 1 — effect on: cell-free assay; technique: competition with immobilised ligand; concentration: 1 µM
SMILES: CCC(=O)N[C@H]1CC[C@@H](C(=O)N(C)c2ccc(-c3nc4ccccc4o3)cc2)C1
target	remaining binding [%]
Fibroblast growth factor receptor 2 (FGFR2, Homo sapiens, UniProt P21802)	91
RAC-alpha serine/threonine-protein kinase (AKT1, Homo sapiens, UniProt P31749)	97
Rhodopsin kinase GRK1 (GRK1, Homo sapiens, UniProt Q15835)	77
Activin receptor type-1-like (ACVRL1, Homo sapiens, UniProt P37023)	77
Serine/threonine-protein kinase tousled-like 2 (TLK2, Homo sapiens, UniProt Q86UE8)	100
Serine/threonine-protein kinase SIK3 (SIK3, Homo sapiens, UniProt Q9Y2K2)	84
Angiopoietin-1 receptor (TEK, Homo sapiens, UniProt Q02763)	85
Tyrosine-protein kinase Blk (BLK, Homo sapiens, UniProt P51451)	97
Dual specificity mitogen-activated protein kinase kinase 3 (MAP2K3, Homo sapiens, UniProt P46734)	77
Serine/threonine-protein kinase PAK 1 (PAK1, Homo sapiens, UniProt Q13153)	82
Phosphatidylinositol 4,5-bisphosphate 3-kinase catalytic subunit alpha isoform (PIK3CA, Homo sapiens, UniProt P42336, E542K)	77
Calcium/calmodulin-dependent protein kinase kinase 2 (CAMKK2, Homo sapiens, UniProt Q96RR4)	91
Vascular endothelial growth factor receptor 3 (FLT4, Homo sapiens, UniProt P35916)	97
Epidermal growth factor receptor (EGFR, Homo sapiens, UniProt P00533, del752-759)	100
Tyrosine-protein kinase ABL1, phosphorylated (ABL1, Homo sapiens, UniProt P00519, T315I)	89

Series 2 — effect on: enzyme activity; action: inhibitor; concentration: 10 µM
Target: Calcium/calmodulin-dependent protein kinase type II subunit alpha (CAMK2A, Homo sapiens, UniProt Q9UQM7)
UniProt Q9UQM7, sequence (whole entry, looked up): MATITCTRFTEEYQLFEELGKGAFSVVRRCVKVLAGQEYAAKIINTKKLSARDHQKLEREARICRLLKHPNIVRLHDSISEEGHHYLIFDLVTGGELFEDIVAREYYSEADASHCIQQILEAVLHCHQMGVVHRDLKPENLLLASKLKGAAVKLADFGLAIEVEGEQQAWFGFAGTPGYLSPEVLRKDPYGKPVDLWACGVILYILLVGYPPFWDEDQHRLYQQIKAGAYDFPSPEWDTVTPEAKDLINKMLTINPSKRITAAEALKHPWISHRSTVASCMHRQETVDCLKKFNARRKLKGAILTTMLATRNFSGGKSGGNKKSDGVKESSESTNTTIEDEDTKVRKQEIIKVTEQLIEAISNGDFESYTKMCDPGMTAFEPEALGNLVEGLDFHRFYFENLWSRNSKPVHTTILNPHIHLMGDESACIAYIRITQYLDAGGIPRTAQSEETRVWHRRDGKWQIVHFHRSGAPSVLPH
Compound	inhibition [%]
Cn1c(N)nc2c(ncn2[C@@H]2O[C@H](CO)[C@@H](O)[C@H]2O)c1=O	-18
C[N+](C)(C)CCOP(=O)([O-])OP(=O)(O)OC[C@H]1O[C@@H](n2ccc(N)nc2=O)[C@H](O)[C@@H]1O	-4
COc1cc(O[C@@H]2O[C@H](CO[C@@H]3O[C@H](CO)[C@@H](O)[C@H](O)[C@H]3O)[C@@H](O)[C@H](O)[C@H]2O)c2c(O)c3c(=O)oc(C)cc3cc2c1	-10
C[C@H]1[C@H](OC(=O)CCC(=O)O)O[C@@H]2O[C@@]3(C)CC[C@H]4[C@H](C)CC[C@@H]1[C@@]24OO3	0
NCCCC[C@@H]1NC(=O)[C@@H](Cc2c[nH]c3ccccc23)NC(=O)[C@H](c2ccccc2)NC(=O)[C@@H]2C[C@@H](OC(=O)NCCN)CN2C(=O)[C@H](Cc2ccccc2)NC(=O)[C@H](Cc2ccc(OCc3ccccc3)cc2)NC1=O	5
CC[C@H](C)[C@@H]1NC(=O)[C@H](Cc2ccc(O)cc2)NC(=O)[C@@H](N)CSSC[C@@H](C(=O)N2CCC[C@H]2C(=O)N[C@@H](CC(C)C)C(=O)NCC(N)=O)NC(=O)[C@H](CC(N)=O)NC(=O)[C@H](CCC(N)=O)NC1=O	-10
O=C(O)c1c[nH]c2ccccc12	-18
COc1cc(OC)c2c(=O)c(OC)c(-c3ccc(OC)c(OC)c3)oc2c1	23

Series 3 — concentration: 10 µM
Structure (SMILES): Cc1sc(C(=O)NC2COC2)cc1-n1cc(NC(=O)Nc2c(F)cccc2Cl)cn1
target	effect on	action	technique	relative to	remaining activity
Serine/threonine-protein kinase/endoribonuclease IRE1 (ERN1, Homo sapiens, UniProt O75460)	enzyme activity	–	–	untreated control	93.3%
Serine/threonine-protein kinase SIK1 (SIK1, Homo sapiens, UniProt P57059)	enzyme activity	inhibitor	–	–	99.8%
Protein kinase C zeta type (PRKCZ, Homo sapiens, UniProt Q05513)	enzyme activity	–	–	untreated control	104%
NUAK family SNF1-like kinase 1 (NUAK1, Homo sapiens, UniProt O60285)	enzyme activity	–	–	untreated control	96.1%
Serine/threonine-protein kinase SIK3 (SIK3, Homo sapiens, UniProt Q9Y2K2)	enzyme activity	–	–	untreated control	81.6%
Dual specificity mitogen-activated protein kinase kinase 7 (MAP2K7, Homo sapiens, UniProt O14733)	enzyme activity	–	–	untreated control	115%
Ribosomal protein S6 kinase alpha-2 (RPS6KA2, Homo sapiens, UniProt Q15349)	kinase activity	–	kinase panel profiling	–	100%
Protein-tyrosine kinase 6 (PTK6, Homo sapiens, UniProt Q13882)	enzyme activity	–	–	untreated control	77.1%
STE20/SPS1-related proline-alanine-rich protein kinase (STK39, Homo sapiens, UniProt Q9UEW8)	enzyme activity	–	–	untreated control	62.6%
Serine/threonine-protein kinase TAO3 (TAOK3, Homo sapiens, UniProt Q9H2K8)	enzyme activity	–	–	untreated control	94.4%
Mitogen-activated protein kinase 11 (MAPK11, Homo sapiens, UniProt Q15759)	enzyme activity	–	–	untreated control	88%
Receptor-interacting serine/threonine-protein kinase 4 (RIPK4, Homo sapiens, UniProt P57078)	enzyme activity	inhibitor	–	–	103%
Calcium/calmodulin-dependent protein kinase type II subunit beta (CAMK2B, Homo sapiens, UniProt Q13554)	enzyme activity	–	–	untreated control	99.8%

Series 4 — action: inhibitor; concentration: concentration not given; notes: absolute value; together with: with minus without ssDNA
Target: DNA polymerase theta, helicase domain (POLQ, Homo sapiens, UniProt O75417)
UniProt O75417, sequence (whole entry, looked up): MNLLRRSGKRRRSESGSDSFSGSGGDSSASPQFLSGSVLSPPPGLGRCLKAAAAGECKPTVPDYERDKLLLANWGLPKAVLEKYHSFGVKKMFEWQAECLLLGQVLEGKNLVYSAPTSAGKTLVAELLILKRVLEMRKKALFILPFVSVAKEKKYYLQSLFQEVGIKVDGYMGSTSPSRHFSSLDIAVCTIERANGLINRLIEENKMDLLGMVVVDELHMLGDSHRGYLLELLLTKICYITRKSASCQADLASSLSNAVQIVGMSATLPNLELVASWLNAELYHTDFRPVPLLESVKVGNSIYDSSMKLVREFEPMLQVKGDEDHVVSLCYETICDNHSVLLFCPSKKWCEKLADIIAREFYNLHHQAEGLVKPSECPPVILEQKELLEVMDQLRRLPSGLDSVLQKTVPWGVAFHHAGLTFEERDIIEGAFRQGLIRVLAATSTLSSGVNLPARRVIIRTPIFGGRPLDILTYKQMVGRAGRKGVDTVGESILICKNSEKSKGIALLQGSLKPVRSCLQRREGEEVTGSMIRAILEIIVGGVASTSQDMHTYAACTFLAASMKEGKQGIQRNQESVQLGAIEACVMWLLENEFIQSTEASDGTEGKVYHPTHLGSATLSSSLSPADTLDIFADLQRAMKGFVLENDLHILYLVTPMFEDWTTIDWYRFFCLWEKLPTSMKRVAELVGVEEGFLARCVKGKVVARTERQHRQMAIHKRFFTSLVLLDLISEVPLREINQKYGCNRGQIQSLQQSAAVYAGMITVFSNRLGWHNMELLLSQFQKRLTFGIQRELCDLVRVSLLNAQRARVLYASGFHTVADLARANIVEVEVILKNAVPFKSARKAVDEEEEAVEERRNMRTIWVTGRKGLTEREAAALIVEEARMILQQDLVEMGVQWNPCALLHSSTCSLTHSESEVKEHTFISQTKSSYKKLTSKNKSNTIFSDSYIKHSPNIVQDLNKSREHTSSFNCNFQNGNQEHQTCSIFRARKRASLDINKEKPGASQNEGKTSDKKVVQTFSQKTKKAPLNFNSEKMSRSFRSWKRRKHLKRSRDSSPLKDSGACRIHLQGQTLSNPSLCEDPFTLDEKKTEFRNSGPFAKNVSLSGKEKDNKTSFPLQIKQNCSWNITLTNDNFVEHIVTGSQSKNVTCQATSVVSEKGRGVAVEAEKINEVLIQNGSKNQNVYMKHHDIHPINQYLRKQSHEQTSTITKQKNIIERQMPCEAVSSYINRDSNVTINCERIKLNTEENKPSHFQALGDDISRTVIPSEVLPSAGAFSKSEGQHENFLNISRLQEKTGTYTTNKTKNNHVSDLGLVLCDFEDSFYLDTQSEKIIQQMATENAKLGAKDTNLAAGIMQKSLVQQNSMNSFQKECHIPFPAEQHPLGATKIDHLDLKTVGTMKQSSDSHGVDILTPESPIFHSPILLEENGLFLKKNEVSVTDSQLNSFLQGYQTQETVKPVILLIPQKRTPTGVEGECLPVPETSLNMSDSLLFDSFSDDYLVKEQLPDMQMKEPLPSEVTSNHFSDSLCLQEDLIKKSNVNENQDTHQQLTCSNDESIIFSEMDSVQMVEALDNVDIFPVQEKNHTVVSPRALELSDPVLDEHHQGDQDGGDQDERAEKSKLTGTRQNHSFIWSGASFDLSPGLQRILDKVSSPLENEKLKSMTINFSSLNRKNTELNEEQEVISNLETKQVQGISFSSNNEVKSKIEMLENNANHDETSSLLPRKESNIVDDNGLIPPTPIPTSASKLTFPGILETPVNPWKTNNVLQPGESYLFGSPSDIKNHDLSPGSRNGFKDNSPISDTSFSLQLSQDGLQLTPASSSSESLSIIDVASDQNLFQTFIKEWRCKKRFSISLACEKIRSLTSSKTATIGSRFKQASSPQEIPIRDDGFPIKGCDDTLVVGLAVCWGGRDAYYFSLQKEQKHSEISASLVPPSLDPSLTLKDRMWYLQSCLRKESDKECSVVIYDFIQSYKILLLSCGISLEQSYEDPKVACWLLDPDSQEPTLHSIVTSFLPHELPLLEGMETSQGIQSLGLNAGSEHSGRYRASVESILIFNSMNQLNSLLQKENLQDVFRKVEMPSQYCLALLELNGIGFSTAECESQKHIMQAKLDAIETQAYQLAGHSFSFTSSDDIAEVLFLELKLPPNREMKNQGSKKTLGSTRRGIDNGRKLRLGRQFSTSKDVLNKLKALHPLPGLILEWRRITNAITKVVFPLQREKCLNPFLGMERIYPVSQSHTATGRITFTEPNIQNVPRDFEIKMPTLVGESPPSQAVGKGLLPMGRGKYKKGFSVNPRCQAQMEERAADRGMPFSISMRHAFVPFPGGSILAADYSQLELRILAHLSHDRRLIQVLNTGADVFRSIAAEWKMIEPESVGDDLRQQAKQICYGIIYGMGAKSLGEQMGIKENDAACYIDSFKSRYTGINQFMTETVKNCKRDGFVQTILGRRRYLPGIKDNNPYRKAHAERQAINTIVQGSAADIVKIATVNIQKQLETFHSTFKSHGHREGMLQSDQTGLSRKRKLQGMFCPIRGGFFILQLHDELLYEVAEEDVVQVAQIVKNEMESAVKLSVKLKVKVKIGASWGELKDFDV
Structure (SMILES)	difference in remaining activity [%]
COC(=O)c1cc(Cl)ccc1NC(=O)CSc1ncc(S(=O)(=O)c2ccc(Br)cc2)c(=O)[nH]1	53.4
COc1ccc2c(c1)c(CC(=O)O)c(C)n2Cc1ccc(Cl)cc1	5.2
CSc1ccc(/C=C/c2nc3ccccc3n2S(=O)(=O)c2cccc(Cl)c2)cc1	17.6
Cc1ccccc1C(=O)Nc1sc2c(c1C(=O)O)CCC(C(C)(C)C)C2 (centres unmarked)	35.3
CC1(C)Cc2c(-c3ccccc3)c(-c3ccc(Cl)cc3)c(CC(=O)O)n2C1	17.8
O=C(Nc1ccccc1C(=O)O)c1cccc(S(=O)(=O)N2CCCC2)c1	1.74
Cc1noc(C)c1S(=O)(=O)Nc1ccc(C(=O)Nc2ccc(Br)cc2)cc1	21.7
O=C(Nc1cc(-c2ccccc2)sc1C(=O)O)c1cccc(F)c1	20.9

For quick reference, copied from above (series 1):
target	remaining binding [%]
Calcium/calmodulin-dependent protein kinase kinase 2 (CAMKK2, Homo sapiens, UniProt Q96RR4)	91
Vascular endothelial growth factor receptor 3 (FLT4, Homo sapiens, UniProt P35916)	97
Epidermal growth factor receptor (EGFR, Homo sapiens, UniProt P00533, del752-759)	100
